Results gathered from unrelated publications.
Parts stem from different laboratories: compare values within a part only.
Sequence of UniProt Q9H2K8 (whole entry, looked up): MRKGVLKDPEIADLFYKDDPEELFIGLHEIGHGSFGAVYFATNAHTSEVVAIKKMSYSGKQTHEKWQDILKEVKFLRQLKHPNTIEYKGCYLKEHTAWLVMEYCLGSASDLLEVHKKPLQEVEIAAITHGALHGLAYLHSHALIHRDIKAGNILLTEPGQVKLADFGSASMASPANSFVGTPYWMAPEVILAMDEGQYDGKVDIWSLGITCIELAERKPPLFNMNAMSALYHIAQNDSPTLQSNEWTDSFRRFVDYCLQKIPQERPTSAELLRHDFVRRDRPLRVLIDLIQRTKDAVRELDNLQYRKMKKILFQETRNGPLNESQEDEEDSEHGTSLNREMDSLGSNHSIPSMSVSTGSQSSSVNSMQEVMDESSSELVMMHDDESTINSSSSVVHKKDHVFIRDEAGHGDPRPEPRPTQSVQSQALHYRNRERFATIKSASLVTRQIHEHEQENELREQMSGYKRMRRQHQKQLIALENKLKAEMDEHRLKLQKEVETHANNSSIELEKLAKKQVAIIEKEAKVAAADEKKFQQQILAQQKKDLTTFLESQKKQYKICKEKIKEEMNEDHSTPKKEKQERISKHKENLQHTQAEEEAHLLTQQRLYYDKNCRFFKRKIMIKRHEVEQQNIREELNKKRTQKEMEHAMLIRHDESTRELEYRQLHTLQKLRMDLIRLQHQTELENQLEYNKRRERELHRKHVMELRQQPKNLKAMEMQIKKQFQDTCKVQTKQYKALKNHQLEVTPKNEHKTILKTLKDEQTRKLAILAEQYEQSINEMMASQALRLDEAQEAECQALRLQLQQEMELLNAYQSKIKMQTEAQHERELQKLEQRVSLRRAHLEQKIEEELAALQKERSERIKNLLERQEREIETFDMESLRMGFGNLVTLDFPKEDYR
Sequence of UniProt P42679 (whole entry, looked up): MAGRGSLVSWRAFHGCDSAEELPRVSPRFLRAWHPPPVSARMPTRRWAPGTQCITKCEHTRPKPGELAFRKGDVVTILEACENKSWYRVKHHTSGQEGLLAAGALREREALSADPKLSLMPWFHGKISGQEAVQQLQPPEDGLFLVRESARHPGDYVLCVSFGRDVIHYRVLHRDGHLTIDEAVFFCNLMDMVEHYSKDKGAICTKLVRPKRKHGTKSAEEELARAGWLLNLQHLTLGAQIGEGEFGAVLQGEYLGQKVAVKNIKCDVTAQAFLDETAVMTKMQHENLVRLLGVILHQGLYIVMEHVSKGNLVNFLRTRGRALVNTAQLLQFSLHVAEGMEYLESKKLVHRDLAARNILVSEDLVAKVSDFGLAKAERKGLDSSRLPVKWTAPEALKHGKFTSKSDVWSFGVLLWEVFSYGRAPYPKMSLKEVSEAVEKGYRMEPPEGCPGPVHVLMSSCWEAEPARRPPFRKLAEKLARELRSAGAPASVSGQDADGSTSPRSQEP
Sequence of UniProt Q16566 (whole entry, looked up): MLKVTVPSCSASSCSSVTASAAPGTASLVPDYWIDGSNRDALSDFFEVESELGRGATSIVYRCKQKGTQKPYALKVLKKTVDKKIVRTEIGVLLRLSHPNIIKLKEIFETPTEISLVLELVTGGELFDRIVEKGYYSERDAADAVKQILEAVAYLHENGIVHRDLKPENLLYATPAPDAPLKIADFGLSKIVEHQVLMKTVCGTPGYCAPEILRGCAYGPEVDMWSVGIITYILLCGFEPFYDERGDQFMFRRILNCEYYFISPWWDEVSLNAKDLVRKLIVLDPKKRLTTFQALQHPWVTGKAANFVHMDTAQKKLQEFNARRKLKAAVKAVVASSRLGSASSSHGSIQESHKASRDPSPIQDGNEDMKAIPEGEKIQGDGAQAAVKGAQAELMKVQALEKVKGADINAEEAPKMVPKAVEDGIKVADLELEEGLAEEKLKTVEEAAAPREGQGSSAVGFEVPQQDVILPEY
Sequence of UniProt Q59H18 (whole entry, looked up): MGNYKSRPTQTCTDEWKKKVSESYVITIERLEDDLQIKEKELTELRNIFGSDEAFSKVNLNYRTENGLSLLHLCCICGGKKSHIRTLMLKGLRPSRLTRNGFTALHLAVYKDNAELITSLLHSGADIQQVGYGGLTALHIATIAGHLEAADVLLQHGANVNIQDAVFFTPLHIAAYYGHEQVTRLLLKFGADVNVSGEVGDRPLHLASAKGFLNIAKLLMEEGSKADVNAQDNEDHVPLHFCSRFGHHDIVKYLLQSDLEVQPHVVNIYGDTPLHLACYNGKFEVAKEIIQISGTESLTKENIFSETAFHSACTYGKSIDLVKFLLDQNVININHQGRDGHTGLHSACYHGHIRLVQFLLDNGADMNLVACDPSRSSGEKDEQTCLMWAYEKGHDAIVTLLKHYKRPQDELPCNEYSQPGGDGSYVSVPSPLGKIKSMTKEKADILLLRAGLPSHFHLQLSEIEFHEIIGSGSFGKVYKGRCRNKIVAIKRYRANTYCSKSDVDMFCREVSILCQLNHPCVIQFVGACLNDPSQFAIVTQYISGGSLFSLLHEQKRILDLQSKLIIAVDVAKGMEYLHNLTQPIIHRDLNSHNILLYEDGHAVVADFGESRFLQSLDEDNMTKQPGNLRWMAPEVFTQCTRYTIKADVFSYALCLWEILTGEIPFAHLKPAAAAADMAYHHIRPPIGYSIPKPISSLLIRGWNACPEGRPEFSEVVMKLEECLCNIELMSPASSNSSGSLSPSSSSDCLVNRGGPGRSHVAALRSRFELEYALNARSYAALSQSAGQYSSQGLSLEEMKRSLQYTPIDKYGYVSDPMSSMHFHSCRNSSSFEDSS
Sequence of UniProt Q00526 (whole entry, looked up): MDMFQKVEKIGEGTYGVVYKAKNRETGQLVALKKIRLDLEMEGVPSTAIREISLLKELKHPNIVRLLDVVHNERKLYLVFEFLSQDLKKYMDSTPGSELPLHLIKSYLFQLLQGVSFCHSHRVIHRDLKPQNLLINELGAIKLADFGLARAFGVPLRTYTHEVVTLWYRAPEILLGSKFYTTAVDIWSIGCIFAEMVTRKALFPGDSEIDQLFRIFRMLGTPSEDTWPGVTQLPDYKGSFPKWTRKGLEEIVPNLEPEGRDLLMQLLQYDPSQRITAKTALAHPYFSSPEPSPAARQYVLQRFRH

Set 1
SMILES: CN(C(=O)c1ccccc1)c1cc(N(C)c2ccc3c(c2)CCc2ccc(C(=O)NCCN4CCOCC4)cc2C3=O)ccc1F
Observed: cell-free assay
Technique: competition with immobilised ligand
Concentration: 1 µM
The remaining binding was 72% (PIP4K2B (Homo sapiens, UniProt P78356)).
It gave 100% for remaining binding (RIPK4 (Homo sapiens, UniProt P57078)).
It gave 100% for remaining binding (KIT (Homo sapiens, UniProt P10721, D816H)).
CSNK1E (Homo sapiens, UniProt P49674) — remaining binding: 100%.
STK39 (Homo sapiens, UniProt Q9UEW8) — remaining binding: 100%.
For TNNI3K (Homo sapiens, UniProt Q59H18): remaining binding read 54%.
It gave 100% for remaining binding (PIK3C3 (Homo sapiens, UniProt Q8NEB9)).
It gave 86% for remaining binding (CLK2 (Homo sapiens, UniProt P49760)).
For EGFR (Homo sapiens, UniProt P00533, A750P/del747-749): remaining binding read 94%.
It gave 84% for remaining binding (FLT3 (Homo sapiens, UniProt P36888, ITD)).
For NEK4 (Homo sapiens, UniProt P51957): remaining binding read 89%.
The remaining binding was 100% (MAPKAPK2 (Homo sapiens, UniProt P49137)).
It gave 100% for remaining binding (Macrophage colony-stimulating factor 1 receptor, autoinhibited (CSF1R, Homo sapiens, UniProt P07333)).
Tyrosine-protein kinase ABL1, phosphorylated (ABL1, Homo sapiens, UniProt P00519) — remaining binding: 100%.
It gave 100% for remaining binding (EPHA1 (Homo sapiens, UniProt P21709)).
For WEE2 (Homo sapiens, UniProt P0C1S8): remaining binding read 100%.
CDK15 (Homo sapiens, UniProt Q96Q40) — remaining binding: 76%.
It gave 100% for remaining binding (CAMK4 (Homo sapiens, UniProt Q16566)).
Tyrosine-protein kinase ABL1, phosphorylated (ABL1, Homo sapiens, UniProt P00519, Y253F) — remaining binding: 100%.
PDGFRB (Homo sapiens, UniProt P09619) — remaining binding: 98%.

Set 2
Target: Beta-1 adrenergic receptor (ADRB1, Homo sapiens, UniProt P08588)
Sequence of UniProt P08588 (whole entry, looked up): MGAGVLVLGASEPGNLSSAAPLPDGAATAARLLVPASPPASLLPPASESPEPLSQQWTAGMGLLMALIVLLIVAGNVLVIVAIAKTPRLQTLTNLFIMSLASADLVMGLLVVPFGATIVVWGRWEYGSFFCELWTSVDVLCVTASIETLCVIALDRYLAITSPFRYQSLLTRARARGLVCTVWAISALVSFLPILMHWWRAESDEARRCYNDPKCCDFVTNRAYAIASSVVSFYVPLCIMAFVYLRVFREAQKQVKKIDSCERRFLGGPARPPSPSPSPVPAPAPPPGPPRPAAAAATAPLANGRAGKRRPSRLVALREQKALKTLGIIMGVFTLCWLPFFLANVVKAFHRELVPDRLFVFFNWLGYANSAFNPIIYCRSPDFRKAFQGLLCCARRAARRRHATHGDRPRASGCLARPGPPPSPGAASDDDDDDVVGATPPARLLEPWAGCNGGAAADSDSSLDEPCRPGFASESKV
Mode: agonist
The EC50 of CCN(Cc1cccs1)c1ncnc2ccc(-c3ccc4c(c3)OCO4)cc12 is reported as ≥ 100 µM.
The EC50 of O=C(NC1CCN(c2cc(-c3ccccc3)n[nH]2)CC1)c1ccc2ccccc2n1 is reported as ≥ 100 µM.
For Cc1occc1-c1nnc(SCc2cn3cccc(C)c3n2)o1, the EC50 was ≥ 100 µM.
O=C(Nc1ccc(Oc2ccnc3[nH]ccc23)c(F)c1)c1cccn(-c2ccc(F)cc2)c1=O gave an EC50 of ≥ 100 µM.
The EC50 of N#Cc1cc2c(nc1N1CCC(COc3cccc(C(F)(F)F)n3)CC1)CCOC2 is reported as ≥ 100 µM.
CCN(CC)c1ccc2c(c1)OC(=O)/C(=C\Nc1ccc(CC(=O)O)c(-c3c4c(nc5ccccc35)CCC(C(=O)NN)C4)c1)C2=O (stereo not shown) has an EC50 of ≥ 100 µM.
For Oc1ccc(-c2cc(-c3cccc(N4CCOCC4)c3)cn3cncc23)cn1, the EC50 was ≥ 100 µM.

Set 3
Structure (SMILES): CN(C)S(=O)(=O)c1ccc2c(c1)/C(=C/c1cc3c([nH]1)CCCC3)C(=O)N2
Observed: enzyme activity
Mode: inhibitor
Concentration: 0.5 µM
Relative to: control
It gave 107% for remaining activity (AKT1 (Homo sapiens, UniProt P31749)).
PRKX (Homo sapiens, UniProt P51817) — remaining activity: 98.1%.
For NLK (Homo sapiens, UniProt Q9UBE8): remaining activity read 99.7%.
NEK11 (Homo sapiens, UniProt Q8NG66) — remaining activity: 82.5%.
It gave 96.9% for remaining activity (Cyclin-dependent kinase 3, with cyclin E (CDK3, Homo sapiens, UniProt Q00526)).
It gave 43.6% for remaining activity (ALK (Homo sapiens, UniProt Q9UM73)).
It gave 23.6% for remaining activity (SRC (Homo sapiens, UniProt P12931)).
STK25 (Homo sapiens, UniProt O00506) — remaining activity: 79.6%.
CDC42BPA (Homo sapiens, UniProt Q5VT25) — remaining activity: 92.3%.
PASK (Homo sapiens, UniProt Q96RG2) — remaining activity: 95.6%.
For ITK (Homo sapiens, UniProt Q08881): remaining activity read 61.2%.
The remaining activity was 78.1% (FLT4 (Homo sapiens, UniProt P35916)).
Insulin receptor (INSR, Homo sapiens, UniProt P06213) — remaining activity: 91.6%.
For LIM domain kinase 1 (LIMK1, Homo sapiens, UniProt P53667): remaining activity read 60.7%.
The remaining activity was 91.2% (PKN1 (Homo sapiens, UniProt Q16512)).
For MARK3 (Homo sapiens, UniProt P27448): remaining activity read 68.9%.
The remaining activity was 55.4% (TAOK3 (Homo sapiens, UniProt Q9H2K8)).
It gave 104% for remaining activity (MATK (Homo sapiens, UniProt P42679)).
The remaining activity was 51.8% (FER (Homo sapiens, UniProt P16591)).
It gave 18.2% for remaining activity (FGR (Homo sapiens, UniProt P09769)).
It gave 33.1% for remaining activity (FYN (Homo sapiens, UniProt P06241)).

Further values, each from its own experiment
Under “time to return to baseline”, Cc1cc2c(C(N)=O)c(N)n(-c3c(C)ccc(O)c3C)c2nc1C is recorded as ≤ 2 h (HCC1569; CDK1 Thr14 phosphorylation, Jess immunoblot; concentration not given, after washout).

Repeated from above (set 3):
It gave 43.6% for remaining activity (ALK (Homo sapiens, UniProt Q9UM73)).
It gave 23.6% for remaining activity (SRC (Homo sapiens, UniProt P12931)).
STK25 (Homo sapiens, UniProt O00506) — remaining activity: 79.6%.
